Measured values pooled from the literature.
Lines come from different studies, so protocols differ.
Cell line: MDA-MB-231

With `COc1ccc(C2=Nn3c(NN=C4C(=O)N(Cc5ccccc5)c5ccc(Cl)cc54)nnc3SC2)cc1` the inhibition was 13% (cell growth or viability, SRB; 10 µM).
With `C/C(=N\N(c1ccccc1)c1ccccc1)c1ccc(O)cc1` the inhibition was 99% (cell growth or viability, MTT; 100 µM, 48 h).
With `Clc1ccc2ccc3[n+](c2c1)[Ir-3]12([c]4ccccc4-3)([c]3ccccc3-c3ccc4ccc(Cl)cc4[n+]31)[n+]1ccccc1-c1cccc[n+]12.F[P-](F)(F)(F)(F)F` the inhibition was 80% (cell migration, Transwell; 0.3 µM, 24 h).
The inhibition of `COc1ccc(SCC(=O)c2ccc(O)cc2O)cc1` is reported as 98% (cell growth or viability, MTT; 100 µM, 48 h).
The inhibition of `C[C@@H]1O[C@@H](OC(=O)/C=C/c2ccc(O)cc2)[C@H](OC(=O)/C=C/c2ccc(O)cc2)[C@H](O)[C@H]1O` is reported as 55% (cell growth or viability, MTT; 10 µM).
The inhibition of `FC(F)(F)c1cnc2[nH]cc(Cc3cccc(Cl)c3)c2c1` is reported as 6.1% (cell growth or viability; 10 µM, 72 h).
For `Cn1nc(-c2cccc(O)c2)c2c(N)ncnc21`, the inhibition was 26% (cell viability, MTT; 10 µM, 72 h).
`COc1cccc(Cc2c[nH]c3ncccc23)c1` gave an inhibition of 8% (cell growth or viability; 10 µM, 72 h).
For `Nc1ccc(Oc2c(F)c(F)c(Oc3ccc(N)cc3)c(F)c2F)cc1`, the inhibition was 44% (cell growth or viability, MTT; 100 µM, 48 h).
`OC(c1ccc(Cl)c(C(F)(F)F)c1)c1c[nH]c2ncc(C(F)(F)F)cc12` (centres unmarked) gave an inhibition of 15% (cell growth or viability; 10 µM, 72 h).
With `COc1ccc2c(c1)/C(=N\Nc1nnc3n1N=C(c1ccccc1)CS3)C(=O)N2` the inhibition was 23% (cell growth or viability, SRB; 10 µM).

Some of these lines once more:
With `COc1ccc(C2=Nn3c(NN=C4C(=O)N(Cc5ccccc5)c5ccc(Cl)cc54)nnc3SC2)cc1` the inhibition was 13% (cell growth or viability, SRB; 10 µM).
With `C/C(=N\N(c1ccccc1)c1ccccc1)c1ccc(O)cc1` the inhibition was 99% (cell growth or viability, MTT; 100 µM, 48 h).
